Experimental data pooled from the literature.
Each numbered part is a random draw from the data of one study; scales do not carry over between parts.

Block 1 — technique: protein-binding microarray; form: double-stranded DNA, one strand shown; matrix: in vitro; concentration: 250 nM; setting: 60-bp whole probe; together with: salmon DNA 0.4 mg/ml; baseline: random background probes; direction: higher = stronger binding; all sequences stand within: GCCTAGCAC … GTCTTGATTCGCTTGACGCTGCTG
Target: Interferon regulatory factor 5, full length, phosphomimetic (IRF5, Homo sapiens, UniProt Q13568-2, residues 1-514, K96S/S451D/S453D/S456D/S462D)
With `ATATATGTATATATGTGTATGTGCTAG` the log fluorescence was 0.605 z-score.
With `CACGAACTGAGTTTCGAGACGTGCTAG` the log fluorescence was 4.69 z-score.
The log fluorescence of `GGATGTCTGTAGCTCATTCTGTGCTAG` is reported as -0.356 z-score.
`TTAGGTACCGGGACTGGGTTAGTGCTA` has a log fluorescence of -0.357 z-score.
`TCAGGTTTCGGACTGGGTTAGTGCTAG` gave a log fluorescence of 4.83 z-score.
The log fluorescence of `TTTGATATCGGGTTTCGATTAGTGCTA` is reported as 8.27 z-score.
The log fluorescence of `TTAGGACTGGACACTGGGGTAGTGCTA` is reported as -0.56 z-score.
The log fluorescence of `TCAGTTCTTATCCTTCCCACTGTGCTA` is reported as 0.378 z-score.
With `TTAGGTCTCGGTATCGGCTAGTGCTAG` the log fluorescence was 2.01 z-score.
With `GCCGGACTGGGTTTCGGGACGTGCTAG` the log fluorescence was 1.95 z-score.
`GACGGTCTCGATATCGGGACGTGCTAG` gave a log fluorescence of 0.753 z-score.
For `CAGCCTCTGCATTCCCTCAGGTGCTAG`, the log fluorescence was -0.321 z-score.
`TCATTTTTAGATATCTTACTGTGCTAG` has a log fluorescence of 0.886 z-score.
With `CTCACCCAGTCCAGACACCCGTGCTAG` the log fluorescence was -0.521 z-score.
With `AACTGCTGCCGTCCACCACTGTGCTAG` the log fluorescence was -0.496 z-score.
`AAGGTTATCCATCTCAAGTAGTGCTAG` has a log fluorescence of -0.0154 z-score.
With `AAACAAGTCAATGGCCTTTCGTGCTAG` the log fluorescence was 0.545 z-score.
The log fluorescence of `GACGGACTGGACGTTCGGGACGTGCTA` is reported as -0.437 z-score.
With `TTAGGAGTGGGGTATCGGTTAGTGCTA` the log fluorescence was 2.33 z-score.

Block 2 — technique: protein binding microarray; form: double-stranded DNA, one strand shown; matrix: in vitro; concentration: not given; baseline: not given; direction: higher = stronger binding
Target: Histone acetyltransferase KAT6A, winged helix 1, GST fusion (KAT6A, Homo sapiens, UniProt Q92794, residues 1-85)
Setting: 8-mer, flanks averaged, mean of 2 arrays, mostly near background
Residues (chain): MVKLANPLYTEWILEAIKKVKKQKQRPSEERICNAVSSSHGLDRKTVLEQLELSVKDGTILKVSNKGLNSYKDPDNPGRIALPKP
For `AACTGAAT`, the E-score was -0.129.
`CGAAGTAA` gave an E-score of -0.0647.
For `ATGACCTA`, the E-score was -0.138.
For `GATCTCGA`, the E-score was -0.0281.
With `ACGAAATG` the E-score was -0.219.
`AATATACA` gave an E-score of -0.137.
The E-score of `ATCAGTGA` is reported as -0.198.
With `AGGGATTA` the E-score was -0.147.
The E-score of `GATCACCC` is reported as -0.103.
For `AGTAACCG`, the E-score was 0.175.
With `GATGCGCC` the E-score was 0.286.
For `TATTCTGA`, the E-score was -0.149.
With `CTTGTCTA` the E-score was -0.0421.
`GTTACTGA` gave an E-score of 0.162.
With `CCTTGGCC` the E-score was -0.146.
For `AAGAAGTC`, the E-score was -0.118.
For `AAGGCGCA`, the E-score was 0.232.
The E-score of `AAATCCGC` is reported as 0.284.
The E-score of `ACCCATTA` is reported as -0.165.
`AAACACCC` has an E-score of -0.0354.
With `CCGGAGCA` the E-score was 0.262.
`ACACGCCC` has an E-score of 0.141.
For `CACAACAG`, the E-score was -0.126.

Block 3 — technique: RNA Bind-n-Seq; form: RNA; matrix: in vitro; concentration: 200 nM; setting: whole 134-nt RNA, ends assumed; together with: 150 mM KCl; baseline: input library; direction: higher = stronger binding
Target: Ras GTPase-activating protein-binding protein 1, full length (G3BP1, Homo sapiens, UniProt Q13283)
Sequence of UniProt Q13283 (whole entry, looked up): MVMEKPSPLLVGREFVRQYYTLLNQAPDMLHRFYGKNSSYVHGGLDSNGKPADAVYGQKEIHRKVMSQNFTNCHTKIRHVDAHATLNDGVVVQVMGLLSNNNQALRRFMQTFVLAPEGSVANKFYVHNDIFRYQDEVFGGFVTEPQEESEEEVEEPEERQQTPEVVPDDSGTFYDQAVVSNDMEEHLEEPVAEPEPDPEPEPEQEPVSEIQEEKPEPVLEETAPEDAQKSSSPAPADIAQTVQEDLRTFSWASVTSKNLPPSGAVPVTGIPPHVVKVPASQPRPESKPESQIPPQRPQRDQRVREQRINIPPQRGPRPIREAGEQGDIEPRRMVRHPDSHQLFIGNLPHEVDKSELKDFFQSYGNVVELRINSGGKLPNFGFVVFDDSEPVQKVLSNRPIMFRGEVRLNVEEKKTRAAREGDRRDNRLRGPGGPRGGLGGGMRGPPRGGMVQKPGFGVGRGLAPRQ
All sequences stand within: GGGAGUUCUACAGUCCGACGAUC … UGGAAUUCUCGGGUGUCAAGG
`UCCUCAAGUCCUGUGCUACACAUCGUAUGUACCGAAUCGGAGGGAGGAGGGGAAAGUAUUAUGUUACGCCGUUCGGAUCUGCACUUCCAG` gave a log2 enrichment of 0.544.
For `UGGGCAUUUUGGUGGAGACGAUGAGCACCAACGACACGAUCGUCAGUGGCACGCUGCCCCAGCGCAUGGCGUCCUGCCUGGAGGUGCUGG`, the log2 enrichment was -1.43.
The log2 enrichment of `CACAGACAACACGCACCCACACAGACACAGAGGGAAGGGGUUGGGAUGGGGACAGGGUGCACAGCAGGGCGGUGUAGGACCCCAGCCCCU` is reported as 1.86.
With `UGUGCUACACAUCGUAUGUACCGAAUCGGGUUUUUUUGGGUUUUUUUGGGGUUUUUUUGGGGAAAGUAUUAUGUUACGCCGUUCGGAUCU` the log2 enrichment was -0.796.
For `GUCCUGUGCUACACAUCGUAUGUACCGAAUCGGGUUUGGGUUUUUUUGGGAAAAAGGGAAAGUAUUAUGUUACGCCGUUCGGAUCUGCAC`, the log2 enrichment was -0.253.
For `CUCAAGUCCUGUGCUACACAUCGUAUGUACCGAAUCGGAAAGGUUUGGUUUGGAAAGUAUUAUGUUACGCCGUUCGGAUCUGCACUUCCA`, the log2 enrichment was -0.47.
The log2 enrichment of `UGGCCCUGGUGGCAUGCGGGGAGGAGGAGGUGGCCUCAUGGAUCGUGGUGGUCCCGGUGGAAUGUUCAGAGGUGGCCGUGGUGGAGACAG` is reported as 0.624.
With `UAACGUUAGAGGAGGAUCUGAUGGAUAUGGCAGUGGACGUGGAUUUGGGGAUGGCUAUAAUGGGUAUGGAGGAGGACCUGGAGGUGGCAA` the log2 enrichment was 0.372.
`AGUCCUGUGCUACACAUCGUAUGUACCGAAUCGGGUUUUUUUGGGUUUGGGUUUGGGAAAGUAUUAUGUUACGCCGUUCGGAUCUGCACU` has a log2 enrichment of -0.169.

Block 4 — technique: RNA Bind-n-Seq; form: RNA; matrix: in vitro; concentration: not given; baseline: input RNA pool; direction: higher = stronger binding
Target: RING finger protein unkempt homolog, zinc fingers 1-6, GST-SBP tag (UNK, Homo sapiens, UniProt Q9C0B0, residues 30-357)
Setting: RNA with constant flanks, human-mouse chimeric sites, ends assumed
All sequences stand within: GGGAGUUCUACAGUCCGACGAUC … CAACAGAGGAUUGAGCAUCA
Construct (chain): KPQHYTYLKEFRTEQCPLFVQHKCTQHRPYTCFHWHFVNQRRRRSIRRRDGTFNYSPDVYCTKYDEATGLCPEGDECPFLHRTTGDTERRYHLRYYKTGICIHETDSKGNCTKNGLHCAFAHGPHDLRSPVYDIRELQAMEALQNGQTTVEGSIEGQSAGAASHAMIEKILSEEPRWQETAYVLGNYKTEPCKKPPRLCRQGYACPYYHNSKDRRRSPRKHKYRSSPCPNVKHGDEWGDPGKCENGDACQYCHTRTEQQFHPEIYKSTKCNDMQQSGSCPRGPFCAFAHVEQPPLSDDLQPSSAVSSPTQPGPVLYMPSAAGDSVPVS
With `AUGGAACAUUUCGAUGCAUCACUUAGUACCUAUUUCAAGGCCUUCCUGGGCCCCCGAGAUACUAGAGUCAAAGGAUGGUUCCUCCUGGACAAUUACAUCCCUACGUUUGUCUGUUCUGUU` the bound/input enrichment was 0.252 ratio.
For `UAAGUUAUUUUGUACAGCUUUGUAAAUUGUAUAGCUUUUUAUAUUGCCAUGUUUAUUUUGUUUGGGUAAUUUGGUUCAUUAAGUACAAAACCAAAUAAAUGAACAUCUUUUUCAGUAAUU`, the bound/input enrichment was 1.23 ratio.
The bound/input enrichment of `CUGAGGAAUACCACUGAGAGACCUUAAAAGAAUCAUUUGAGGGCUCUGUUCGUGCAAGAAUAGUCACUGAUCGGGAAACUGGUUCUUCCAAAGGGUUUUGGUUUUGUGACUUUAAUAGUG` is reported as 0.413 ratio.
The bound/input enrichment of `AGAGAUAAAGCAUCUAGGAACAUGCGAGGCUCCCGGAUGAAUGGGUUUCCAAGUCCCACUCACAGCGCCCACUGUAGCUUCUACCGAACCAGAACCUUGCAGGCACUGAGUAAUGAGAAG` is reported as 0.0755 ratio.
`UAAGUCCUGUGCCAGCACUUCGCUCAUUAUAUUUUAAAUUCUGGACCAAUAGUGUUUGUUUCCUGAUUAUUGUAUCCAAUACUUUGCCUAGUAUGUAACUCACUCUUACUGAUAAUAAAA` gave a bound/input enrichment of 4.94 ratio.
For `CCUGCUCAGAUCACCAUGAAAGUAAUCCAAGGCCUAUAUAGUGGGGUCACCACAGUGGAACUGGACACCCUGGCUGCUGAGACAGCCGCAACCUUGACCACGAAGCACCCUGACUAUGCC`, the bound/input enrichment was 0.162 ratio.
For `AAUGUUCUUAAUAUUUUUGAAUAAAUGAAGCUAAAAUGUCUGCUUUUGGUACAACACGCAUUAAUAAAAGGUUAAGUUUUGUUUUCCACUGAAGUACGUAAUACUUACUCAGAAAAAAAC`, the bound/input enrichment was 0.353 ratio.
`AGGAGGAGGUUAAAGGGUGAGAGUGGGGUGGAAGACUGUGUCAUGGCUCUGGAGACACUGUUCAGUGUUCUGCUUUCUCUGUGCAGACUGAUGGCCCCUUACACGCCCUUUCUGACUGAG` has a bound/input enrichment of 0.0732 ratio.

Repeated from above (block 2):
`CGAAGTAA` gave an E-score of -0.0647.
For `ATGACCTA`, the E-score was -0.138.
For `GATCTCGA`, the E-score was -0.0281.
With `ACGAAATG` the E-score was -0.219.
`AATATACA` gave an E-score of -0.137.
The E-score of `ATCAGTGA` is reported as -0.198.
With `AGGGATTA` the E-score was -0.147.
The E-score of `GATCACCC` is reported as -0.103.
